Experimental data pooled from the literature.
Each numbered part is a random draw from the data of one study; scales do not carry over between parts.
UniProt P10721, sequence (whole entry, unmodified, looked up): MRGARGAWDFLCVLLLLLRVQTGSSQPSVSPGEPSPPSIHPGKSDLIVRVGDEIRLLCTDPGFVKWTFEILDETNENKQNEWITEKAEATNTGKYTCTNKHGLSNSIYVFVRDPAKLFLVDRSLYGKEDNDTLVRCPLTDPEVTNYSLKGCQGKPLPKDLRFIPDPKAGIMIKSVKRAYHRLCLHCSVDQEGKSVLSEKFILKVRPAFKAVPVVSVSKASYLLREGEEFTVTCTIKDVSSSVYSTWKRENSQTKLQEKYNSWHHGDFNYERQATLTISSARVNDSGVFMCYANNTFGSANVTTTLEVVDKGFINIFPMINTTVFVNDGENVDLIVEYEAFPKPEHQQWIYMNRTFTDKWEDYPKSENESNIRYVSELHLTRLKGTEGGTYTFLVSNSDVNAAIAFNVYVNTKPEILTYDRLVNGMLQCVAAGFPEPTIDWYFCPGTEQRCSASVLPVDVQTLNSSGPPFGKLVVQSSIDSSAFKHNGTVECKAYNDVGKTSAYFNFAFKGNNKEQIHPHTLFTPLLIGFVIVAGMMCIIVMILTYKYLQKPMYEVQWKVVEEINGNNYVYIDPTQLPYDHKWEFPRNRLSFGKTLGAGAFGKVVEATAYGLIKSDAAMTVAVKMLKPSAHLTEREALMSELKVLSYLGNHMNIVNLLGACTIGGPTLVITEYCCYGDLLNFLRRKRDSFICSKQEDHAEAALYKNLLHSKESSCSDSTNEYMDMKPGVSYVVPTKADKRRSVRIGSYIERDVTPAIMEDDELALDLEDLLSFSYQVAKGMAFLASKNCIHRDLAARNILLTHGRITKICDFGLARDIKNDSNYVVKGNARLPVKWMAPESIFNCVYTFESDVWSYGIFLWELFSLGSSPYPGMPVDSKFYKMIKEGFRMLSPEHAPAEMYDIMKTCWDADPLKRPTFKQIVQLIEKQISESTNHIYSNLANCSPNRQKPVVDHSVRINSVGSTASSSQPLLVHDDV
UniProt Q15349, sequence (whole entry, looked up): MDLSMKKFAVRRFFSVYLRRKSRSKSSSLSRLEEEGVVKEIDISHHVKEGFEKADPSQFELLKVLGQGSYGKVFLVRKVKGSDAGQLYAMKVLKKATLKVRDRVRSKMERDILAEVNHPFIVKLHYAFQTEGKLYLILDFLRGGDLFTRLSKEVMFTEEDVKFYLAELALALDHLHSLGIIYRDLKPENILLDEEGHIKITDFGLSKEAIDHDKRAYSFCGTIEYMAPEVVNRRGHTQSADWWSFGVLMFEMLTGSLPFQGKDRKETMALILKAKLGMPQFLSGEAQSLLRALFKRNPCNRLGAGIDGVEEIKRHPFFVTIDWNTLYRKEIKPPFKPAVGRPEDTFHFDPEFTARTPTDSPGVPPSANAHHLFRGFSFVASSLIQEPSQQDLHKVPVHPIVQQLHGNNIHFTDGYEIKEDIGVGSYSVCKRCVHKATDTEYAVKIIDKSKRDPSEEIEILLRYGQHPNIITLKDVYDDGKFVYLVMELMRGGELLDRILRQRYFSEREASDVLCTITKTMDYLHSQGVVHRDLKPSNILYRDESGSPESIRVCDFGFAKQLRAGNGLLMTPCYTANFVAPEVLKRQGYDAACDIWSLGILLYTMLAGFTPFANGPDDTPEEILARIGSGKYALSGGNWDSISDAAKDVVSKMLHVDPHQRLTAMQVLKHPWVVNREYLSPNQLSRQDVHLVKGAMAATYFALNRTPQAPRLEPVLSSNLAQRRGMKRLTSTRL
UniProt P42685, sequence (whole entry, looked up): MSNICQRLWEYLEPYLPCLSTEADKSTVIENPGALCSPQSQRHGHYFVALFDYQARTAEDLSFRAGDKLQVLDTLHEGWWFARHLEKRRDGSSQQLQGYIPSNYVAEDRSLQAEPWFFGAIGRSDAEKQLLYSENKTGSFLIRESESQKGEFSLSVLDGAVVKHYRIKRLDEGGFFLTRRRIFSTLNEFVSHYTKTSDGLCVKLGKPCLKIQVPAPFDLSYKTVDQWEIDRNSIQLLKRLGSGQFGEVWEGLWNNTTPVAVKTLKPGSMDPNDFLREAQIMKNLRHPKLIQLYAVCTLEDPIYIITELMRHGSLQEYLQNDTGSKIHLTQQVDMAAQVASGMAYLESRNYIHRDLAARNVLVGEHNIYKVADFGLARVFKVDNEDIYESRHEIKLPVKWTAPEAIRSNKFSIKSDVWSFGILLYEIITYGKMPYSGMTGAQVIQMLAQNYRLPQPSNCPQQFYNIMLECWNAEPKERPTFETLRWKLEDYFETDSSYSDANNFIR
UniProt Q6ZWH5, sequence (whole entry, looked up): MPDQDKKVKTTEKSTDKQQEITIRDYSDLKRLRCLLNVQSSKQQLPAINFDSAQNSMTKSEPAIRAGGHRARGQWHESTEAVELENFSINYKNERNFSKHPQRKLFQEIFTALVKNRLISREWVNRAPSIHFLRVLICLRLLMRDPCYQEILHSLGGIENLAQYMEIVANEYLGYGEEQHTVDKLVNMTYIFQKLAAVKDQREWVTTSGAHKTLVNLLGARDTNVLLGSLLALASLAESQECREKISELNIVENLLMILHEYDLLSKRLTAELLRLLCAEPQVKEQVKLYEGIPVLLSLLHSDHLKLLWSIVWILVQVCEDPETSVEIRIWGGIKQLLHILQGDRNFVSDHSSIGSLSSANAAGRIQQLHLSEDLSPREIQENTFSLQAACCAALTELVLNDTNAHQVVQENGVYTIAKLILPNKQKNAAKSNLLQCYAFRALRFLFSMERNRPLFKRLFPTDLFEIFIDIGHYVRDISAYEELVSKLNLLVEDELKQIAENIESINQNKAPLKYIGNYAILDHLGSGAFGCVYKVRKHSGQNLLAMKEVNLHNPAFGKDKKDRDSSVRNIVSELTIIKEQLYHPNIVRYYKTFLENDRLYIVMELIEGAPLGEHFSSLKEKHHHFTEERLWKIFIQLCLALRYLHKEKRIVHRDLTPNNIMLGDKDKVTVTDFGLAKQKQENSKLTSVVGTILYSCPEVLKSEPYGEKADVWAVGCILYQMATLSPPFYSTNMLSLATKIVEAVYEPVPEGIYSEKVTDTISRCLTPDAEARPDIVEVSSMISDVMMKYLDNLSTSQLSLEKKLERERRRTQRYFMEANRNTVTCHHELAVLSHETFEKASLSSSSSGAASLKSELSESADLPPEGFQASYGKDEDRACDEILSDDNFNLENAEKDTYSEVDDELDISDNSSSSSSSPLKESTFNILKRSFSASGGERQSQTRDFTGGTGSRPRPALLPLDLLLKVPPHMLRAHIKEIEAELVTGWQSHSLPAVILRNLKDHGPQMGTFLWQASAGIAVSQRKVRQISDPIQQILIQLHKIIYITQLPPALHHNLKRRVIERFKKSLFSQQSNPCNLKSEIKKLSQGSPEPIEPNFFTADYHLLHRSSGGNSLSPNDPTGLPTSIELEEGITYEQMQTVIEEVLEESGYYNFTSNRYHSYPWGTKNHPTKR
UniProt P21802, sequence (whole entry, looked up): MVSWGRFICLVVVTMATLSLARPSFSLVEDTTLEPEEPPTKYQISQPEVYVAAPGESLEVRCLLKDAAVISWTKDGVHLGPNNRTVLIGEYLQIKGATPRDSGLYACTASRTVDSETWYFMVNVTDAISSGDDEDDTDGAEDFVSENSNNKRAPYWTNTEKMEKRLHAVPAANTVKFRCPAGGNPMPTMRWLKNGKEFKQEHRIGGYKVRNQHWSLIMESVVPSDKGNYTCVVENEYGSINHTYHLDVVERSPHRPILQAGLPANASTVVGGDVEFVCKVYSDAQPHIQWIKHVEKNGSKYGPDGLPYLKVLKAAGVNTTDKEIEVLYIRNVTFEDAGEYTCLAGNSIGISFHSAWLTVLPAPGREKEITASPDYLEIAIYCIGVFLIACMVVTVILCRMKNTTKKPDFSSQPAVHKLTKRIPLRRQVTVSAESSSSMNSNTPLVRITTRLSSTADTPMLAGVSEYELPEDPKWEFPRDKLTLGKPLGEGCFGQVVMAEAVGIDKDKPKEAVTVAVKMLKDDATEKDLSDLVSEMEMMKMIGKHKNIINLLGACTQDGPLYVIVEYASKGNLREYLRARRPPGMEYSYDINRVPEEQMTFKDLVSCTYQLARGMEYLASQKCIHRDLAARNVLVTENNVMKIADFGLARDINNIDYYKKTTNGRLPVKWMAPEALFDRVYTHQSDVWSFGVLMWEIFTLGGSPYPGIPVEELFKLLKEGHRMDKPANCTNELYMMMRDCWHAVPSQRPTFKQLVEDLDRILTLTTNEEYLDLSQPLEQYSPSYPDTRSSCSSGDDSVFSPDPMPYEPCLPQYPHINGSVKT
UniProt Q9HC98, sequence (whole entry, looked up): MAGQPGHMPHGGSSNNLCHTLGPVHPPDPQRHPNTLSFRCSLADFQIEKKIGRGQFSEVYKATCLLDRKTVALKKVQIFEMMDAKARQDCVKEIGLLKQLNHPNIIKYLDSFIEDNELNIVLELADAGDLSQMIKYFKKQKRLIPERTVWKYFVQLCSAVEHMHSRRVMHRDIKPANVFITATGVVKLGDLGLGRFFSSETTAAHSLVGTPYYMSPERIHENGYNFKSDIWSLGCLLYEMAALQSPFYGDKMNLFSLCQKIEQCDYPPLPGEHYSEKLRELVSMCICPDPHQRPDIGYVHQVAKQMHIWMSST

Series 1
SMILES: O=C(Nc1cnc(Oc2ccc(F)cc2)nc1)N1CCc2ncccc2[C@@H]1c1ccc(F)cc1
Read-out: cell-free assay
Method: competition with immobilised ligand
Concentration: 1 µM
It gave 98% for remaining binding (KIT (Homo sapiens, UniProt P10721, D816V)).
KIT (Homo sapiens, UniProt P10721, L576P) — remaining binding: 100%.
The remaining binding was 88% (CIT (Homo sapiens, UniProt O14578)).
It gave 100% for remaining binding (ERBB3 (Homo sapiens, UniProt P21860)).
For KIT (Homo sapiens, UniProt P10721, V559D/V654A): remaining binding read 84%.
It gave 90% for remaining binding (SNRK (Homo sapiens, UniProt Q9NRH2)).
It gave 91% for remaining binding (HIPK2 (Homo sapiens, UniProt Q9H2X6)).
For MAP4K5 (Homo sapiens, UniProt Q9Y4K4): remaining binding read 77%.
KIT (Homo sapiens, UniProt P10721, A829P) — remaining binding: 100%.
For CSNK1A1 (Homo sapiens, UniProt P48729): remaining binding read 85%.
It gave 83% for remaining binding (MAP3K11 (Homo sapiens, UniProt Q16584)).
It gave 99% for remaining binding (RIPK1 (Homo sapiens, UniProt Q13546)).
It gave 100% for remaining binding (SRPK2 (Homo sapiens, UniProt P78362)).
The remaining binding was 97% (TNK1 (Homo sapiens, UniProt Q13470)).
RAF1 (Homo sapiens, UniProt P04049) — remaining binding: 100%.
Ribosomal protein S6 kinase alpha-2, C-terminal kinase domain (RPS6KA2, Homo sapiens, UniProt Q15349) — remaining binding: 79%.
FGFR4 (Homo sapiens, UniProt P22455) — remaining binding: 98%.
For FGFR2 (Homo sapiens, UniProt P21802): remaining binding read 98%.
The remaining binding was 100% (NEK11 (Homo sapiens, UniProt Q8NG66)).
It gave 72% for remaining binding (EGFR (Homo sapiens, UniProt P00533, G719S)).
CDKL5 (Homo sapiens, UniProt O76039) — remaining binding: 89%.
The remaining binding was 95% (MAP2K7 (Homo sapiens, UniProt O14733)).
For Ribosomal protein S6 kinase alpha-4, C-terminal kinase domain (RPS6KA4, Homo sapiens, UniProt O75676): remaining binding read 89%.
It gave 100% for remaining binding (NEK10 (Homo sapiens, UniProt Q6ZWH5)).
It gave 73% for remaining binding (NLK (Homo sapiens, UniProt Q9UBE8)).

Series 2
Target: Interferon regulatory factor 7, full length, phosphomimetic (IRF7, Homo sapiens, UniProt Q92985, residues 1-503, S471D/S472D/S475D/S476D/S477D/S483D/S484D/S487D)
UniProt Q92985, sequence (whole entry, unmodified, looked up): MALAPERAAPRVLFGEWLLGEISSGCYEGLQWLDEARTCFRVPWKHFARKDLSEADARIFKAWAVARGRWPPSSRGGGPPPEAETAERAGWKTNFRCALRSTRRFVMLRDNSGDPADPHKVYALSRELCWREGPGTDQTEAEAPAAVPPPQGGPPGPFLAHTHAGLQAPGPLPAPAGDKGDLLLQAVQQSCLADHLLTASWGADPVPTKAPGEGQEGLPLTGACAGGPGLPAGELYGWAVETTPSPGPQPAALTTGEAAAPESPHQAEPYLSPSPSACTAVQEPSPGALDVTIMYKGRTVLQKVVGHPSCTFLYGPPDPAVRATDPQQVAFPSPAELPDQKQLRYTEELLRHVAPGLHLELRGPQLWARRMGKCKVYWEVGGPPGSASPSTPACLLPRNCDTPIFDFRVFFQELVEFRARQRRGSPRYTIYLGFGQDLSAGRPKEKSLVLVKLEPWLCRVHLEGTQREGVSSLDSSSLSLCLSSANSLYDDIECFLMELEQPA
Method: protein-binding microarray
Molecule type: double-stranded DNA, one strand shown
Matrix: in vitro
Concentration: 2200 nM top
Setting: 60-bp whole probe
Added: salmon DNA 0.4 mg/ml
Baseline: random background probes
Reading: higher = stronger binding
Constant ends, left off below: GCCTAGCAC … GTCTTGATTCGCTTGACGCTGCTG
Under “fitted relative affinity”, `GACGGTTTCGGGTTTAGGGACGTGCTA` is recorded as 7.62 z-score.
Under “fitted relative affinity”, `GACGATTCCAGTTTCGAGAGGTGCTAG` is recorded as 2.85 z-score.
`TTAGGTATCGGGTTTCGGTTAGTGCTA` — result for “fitted relative affinity”: 4.3 z-score.
`TTAGATTTCGGGTATCGATCAGTGCTA`: “fitted relative affinity” 2.66 z-score.
Under “fitted relative affinity”, `TTAGGCCTGGACACTGGGTTAGTGCTA` is recorded as -0.798 z-score.
`TTAGGTATTCTACTGCTTTAGTGCTAG` — result for “fitted relative affinity”: 0.519 z-score.
Under “fitted relative affinity”, `GTAGATCTCAGTTTCGATTAGTGCTAG` is recorded as 5.33 z-score.
`TCATTTTTGTAATCGAAAACTGTGCTA`: “fitted relative affinity” 1.64 z-score.

Series 3
Structure (SMILES): Oc1cccc(-c2nc(N3CCOCC3)c3oc4ncccc4c3n2)c1
Read-out: enzyme activity
Mode: inhibitor
Concentration: 0.5 µM
Baseline: control
ABL2 (Homo sapiens, UniProt P42684) — remaining activity: 94.9%.
It gave 92.2% for remaining activity (TAOK2 (Homo sapiens, UniProt Q9UL54)).
ARAF (Homo sapiens, UniProt P10398) — remaining activity: 92%.
For MAP2K2 (Homo sapiens, UniProt P36507): remaining activity read 85%.
It gave 81.6% for remaining activity (WEE1 (Homo sapiens, UniProt P30291)).
For MERTK (Homo sapiens, UniProt Q12866): remaining activity read 87.8%.
It gave 88.1% for remaining activity (RPS6KA2 (Homo sapiens, UniProt Q15349)).
The remaining activity was 101% (FGFR3 (Homo sapiens, UniProt P22607)).
It gave 93.7% for remaining activity (EPHA3 (Homo sapiens, UniProt P29320)).
The remaining activity was 94.1% (MAPK3 (Homo sapiens, UniProt P27361)).
For GRK7 (Homo sapiens, UniProt Q8WTQ7): remaining activity read 100%.
MAPKAPK2 (Homo sapiens, UniProt P49137) — remaining activity: 97.8%.
The remaining activity was 99% (JAK3 (Homo sapiens, UniProt P52333)).
It gave 91.3% for remaining activity (FRK (Homo sapiens, UniProt P42685)).
It gave 87.7% for remaining activity (TEK (Homo sapiens, UniProt Q02763)).
It gave 99.9% for remaining activity (CSNK1G3 (Homo sapiens, UniProt Q9Y6M4)).
For CSNK1G2 (Homo sapiens, UniProt P78368): remaining activity read 88.1%.
For ULK2 (Homo sapiens, UniProt Q8IYT8): remaining activity read 106%.
NEK6 (Homo sapiens, UniProt Q9HC98) — remaining activity: 106%.
It gave 77.8% for remaining activity (NEK1 (Homo sapiens, UniProt Q96PY6)).
It gave 93% for remaining activity (TBK1 (Homo sapiens, UniProt Q9UHD2)).
The remaining activity was 94.8% (GSK3B (Homo sapiens, UniProt P49841)).
It gave 101% for remaining activity (MAP3K5 (Homo sapiens, UniProt Q99683)).

Further values, each from its own experiment
Method: cross-linking MS
Under interaction screen, `MTA1 (Homo sapiens, UniProt Q13330)` is recorded as “cross-linked” (HDAC2 (Homo sapiens, UniProt Q92769); hits only).
`NDUFS7 (Homo sapiens, UniProt O75251)` — result for cross-linked residues: “K136 to E53” (NDUFAF3 (Homo sapiens, UniProt Q9BU61); cell fractions; added: DMTMM).
`HSPA5 (Homo sapiens, UniProt P11021)`: interaction screen “cross-linked” (PDIA6 (Homo sapiens, UniProt Q15084); hits only).
For `FIGNL1 (Homo sapiens, UniProt Q6PIW4)`, cross-linked residues read “K339 to D295” (YARS2 (Homo sapiens, UniProt Q9Y2Z4); cell fractions; added: DMTMM).
